Experimental data of several laboratories.
Lines come from different studies, so protocols differ. ± gives the spread as reported.
ACHE: Acetylcholinesterase (ACHE, Homo sapiens, UniProt P22303)
UniProt P22303, sequence (whole entry, looked up): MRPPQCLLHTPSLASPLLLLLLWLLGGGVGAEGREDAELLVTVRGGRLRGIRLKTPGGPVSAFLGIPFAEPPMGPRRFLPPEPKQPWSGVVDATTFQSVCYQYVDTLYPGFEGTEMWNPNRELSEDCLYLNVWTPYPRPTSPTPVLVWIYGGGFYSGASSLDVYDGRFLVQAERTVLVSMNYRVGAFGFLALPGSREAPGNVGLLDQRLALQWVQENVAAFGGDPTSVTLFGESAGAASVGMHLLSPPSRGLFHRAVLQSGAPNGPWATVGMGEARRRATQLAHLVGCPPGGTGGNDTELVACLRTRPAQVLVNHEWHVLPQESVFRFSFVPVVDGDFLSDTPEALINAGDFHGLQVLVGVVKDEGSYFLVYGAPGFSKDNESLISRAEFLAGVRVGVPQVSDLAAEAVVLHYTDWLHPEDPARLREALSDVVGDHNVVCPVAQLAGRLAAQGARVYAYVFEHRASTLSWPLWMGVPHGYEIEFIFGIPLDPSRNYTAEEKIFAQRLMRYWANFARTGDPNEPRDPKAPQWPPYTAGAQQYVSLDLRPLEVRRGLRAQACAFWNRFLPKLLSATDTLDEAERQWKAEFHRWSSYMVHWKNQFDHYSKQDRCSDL
CPL: CPL (Toxoplasma gondii, UniProt Q6DMN0)
UniProt P51878, sequence (whole entry, looked up): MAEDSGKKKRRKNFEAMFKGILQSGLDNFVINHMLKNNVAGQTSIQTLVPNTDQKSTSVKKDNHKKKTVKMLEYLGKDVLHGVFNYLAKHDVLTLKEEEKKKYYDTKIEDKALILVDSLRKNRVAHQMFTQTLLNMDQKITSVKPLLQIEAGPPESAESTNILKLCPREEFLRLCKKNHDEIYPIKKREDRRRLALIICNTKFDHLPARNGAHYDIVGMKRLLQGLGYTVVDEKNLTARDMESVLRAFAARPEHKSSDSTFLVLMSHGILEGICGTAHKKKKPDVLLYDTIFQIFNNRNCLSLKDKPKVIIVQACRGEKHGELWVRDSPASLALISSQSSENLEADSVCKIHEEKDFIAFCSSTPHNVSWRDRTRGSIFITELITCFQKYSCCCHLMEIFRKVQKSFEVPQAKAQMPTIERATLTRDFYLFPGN
UniProt P08238, sequence (whole entry, looked up): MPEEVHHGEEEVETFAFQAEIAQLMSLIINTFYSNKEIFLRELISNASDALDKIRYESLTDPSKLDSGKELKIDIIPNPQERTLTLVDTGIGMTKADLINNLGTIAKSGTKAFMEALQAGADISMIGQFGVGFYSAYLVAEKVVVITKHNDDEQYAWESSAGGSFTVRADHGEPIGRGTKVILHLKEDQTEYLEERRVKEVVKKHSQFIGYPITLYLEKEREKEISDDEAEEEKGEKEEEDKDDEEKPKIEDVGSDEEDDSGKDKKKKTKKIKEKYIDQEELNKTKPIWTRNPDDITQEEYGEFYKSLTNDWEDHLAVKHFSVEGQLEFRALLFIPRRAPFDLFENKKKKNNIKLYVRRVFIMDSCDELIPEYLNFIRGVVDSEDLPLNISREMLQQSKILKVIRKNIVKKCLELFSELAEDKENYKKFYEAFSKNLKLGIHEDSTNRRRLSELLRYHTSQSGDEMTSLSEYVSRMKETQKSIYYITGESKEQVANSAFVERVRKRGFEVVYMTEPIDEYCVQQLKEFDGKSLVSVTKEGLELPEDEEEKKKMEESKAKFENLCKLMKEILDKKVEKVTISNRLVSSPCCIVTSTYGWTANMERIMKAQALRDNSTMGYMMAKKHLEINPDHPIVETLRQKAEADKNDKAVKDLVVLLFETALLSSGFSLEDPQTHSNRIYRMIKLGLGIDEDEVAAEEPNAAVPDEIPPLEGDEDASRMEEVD
UniProt Q9HX69, sequence (whole entry, looked up): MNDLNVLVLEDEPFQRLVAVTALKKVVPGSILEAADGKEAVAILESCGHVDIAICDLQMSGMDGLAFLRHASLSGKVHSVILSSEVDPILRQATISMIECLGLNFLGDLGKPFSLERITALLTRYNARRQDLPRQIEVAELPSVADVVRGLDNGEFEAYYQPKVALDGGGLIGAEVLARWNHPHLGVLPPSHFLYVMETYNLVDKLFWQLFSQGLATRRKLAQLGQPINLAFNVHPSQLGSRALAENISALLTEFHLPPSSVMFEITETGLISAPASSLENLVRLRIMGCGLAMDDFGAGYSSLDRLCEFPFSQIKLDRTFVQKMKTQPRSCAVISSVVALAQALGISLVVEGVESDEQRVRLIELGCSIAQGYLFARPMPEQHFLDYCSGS
UniProt P41143, sequence (whole entry, looked up): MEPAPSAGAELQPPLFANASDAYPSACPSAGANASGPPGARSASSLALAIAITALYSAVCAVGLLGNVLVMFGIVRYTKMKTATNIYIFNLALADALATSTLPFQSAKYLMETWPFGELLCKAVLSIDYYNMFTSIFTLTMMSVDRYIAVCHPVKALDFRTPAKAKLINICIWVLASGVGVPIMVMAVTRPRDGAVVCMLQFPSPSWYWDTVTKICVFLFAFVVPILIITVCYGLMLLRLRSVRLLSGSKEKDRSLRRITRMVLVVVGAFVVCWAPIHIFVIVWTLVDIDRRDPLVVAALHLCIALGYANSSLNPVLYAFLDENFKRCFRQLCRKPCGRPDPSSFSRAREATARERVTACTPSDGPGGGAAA
UniProt P17931, sequence (whole entry, unmodified, looked up): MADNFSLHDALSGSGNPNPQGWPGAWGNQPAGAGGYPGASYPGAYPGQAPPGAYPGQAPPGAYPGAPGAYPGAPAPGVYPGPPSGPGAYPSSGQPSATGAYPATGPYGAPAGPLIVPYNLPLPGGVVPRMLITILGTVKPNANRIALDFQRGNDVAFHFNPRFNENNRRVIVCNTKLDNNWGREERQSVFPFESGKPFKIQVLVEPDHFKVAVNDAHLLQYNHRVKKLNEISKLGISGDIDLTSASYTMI
UniProt P10275, sequence (whole entry, looked up): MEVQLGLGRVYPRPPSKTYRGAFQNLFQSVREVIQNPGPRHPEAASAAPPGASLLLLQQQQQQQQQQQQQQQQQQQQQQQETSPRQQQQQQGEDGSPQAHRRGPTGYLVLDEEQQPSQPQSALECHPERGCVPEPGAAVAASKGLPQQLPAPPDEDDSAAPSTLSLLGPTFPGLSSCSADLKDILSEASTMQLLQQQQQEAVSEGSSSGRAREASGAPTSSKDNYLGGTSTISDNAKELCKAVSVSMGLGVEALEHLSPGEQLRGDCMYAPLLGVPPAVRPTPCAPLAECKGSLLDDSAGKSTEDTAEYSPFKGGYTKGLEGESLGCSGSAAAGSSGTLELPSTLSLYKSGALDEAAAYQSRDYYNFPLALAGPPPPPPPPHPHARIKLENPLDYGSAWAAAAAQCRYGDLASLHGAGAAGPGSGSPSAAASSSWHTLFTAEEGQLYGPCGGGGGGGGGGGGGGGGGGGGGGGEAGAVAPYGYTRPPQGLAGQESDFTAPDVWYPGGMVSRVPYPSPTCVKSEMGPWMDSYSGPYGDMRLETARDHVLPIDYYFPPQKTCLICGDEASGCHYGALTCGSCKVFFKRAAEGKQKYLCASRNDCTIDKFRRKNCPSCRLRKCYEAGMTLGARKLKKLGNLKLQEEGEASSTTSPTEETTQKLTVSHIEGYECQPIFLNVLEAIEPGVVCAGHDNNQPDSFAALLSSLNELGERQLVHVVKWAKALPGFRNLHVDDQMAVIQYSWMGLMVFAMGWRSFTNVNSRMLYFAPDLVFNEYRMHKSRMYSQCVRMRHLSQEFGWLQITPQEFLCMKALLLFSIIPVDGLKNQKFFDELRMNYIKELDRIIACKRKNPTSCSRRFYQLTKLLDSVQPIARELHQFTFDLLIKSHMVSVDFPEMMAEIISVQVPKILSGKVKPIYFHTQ
UniProt P21554, sequence (whole entry, looked up): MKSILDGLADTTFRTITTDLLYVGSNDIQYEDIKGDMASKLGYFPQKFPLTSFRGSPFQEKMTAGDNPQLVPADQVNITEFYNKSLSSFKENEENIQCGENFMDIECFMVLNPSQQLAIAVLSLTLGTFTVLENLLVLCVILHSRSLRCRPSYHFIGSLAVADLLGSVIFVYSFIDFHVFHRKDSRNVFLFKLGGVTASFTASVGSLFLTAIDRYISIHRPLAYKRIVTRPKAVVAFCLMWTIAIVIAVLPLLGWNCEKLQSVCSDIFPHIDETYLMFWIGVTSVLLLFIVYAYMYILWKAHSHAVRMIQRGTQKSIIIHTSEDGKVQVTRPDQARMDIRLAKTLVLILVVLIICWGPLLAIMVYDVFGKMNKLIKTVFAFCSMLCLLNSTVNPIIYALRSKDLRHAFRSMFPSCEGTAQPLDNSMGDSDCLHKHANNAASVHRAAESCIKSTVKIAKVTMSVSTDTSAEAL

SMILES = Cc1cc(O)cc(C)c1CC(N)C(=O)NC1CCNc2c(Cc3ccccc3)cc(Cc3ccccc3)cc21 (centres unmarked); target = Oprd1 (Rattus norvegicus, UniProt P33533); assay = GTPγS binding, agonist; system = C6 cells expressing DOR; how to read = relative to: DPDPE at 10 µM; measurement = maximal stimulation; value = 42%
SMILES = CC(=O)N[C@@H](CC(C)C)C(=O)N[C@@H](CCC(=O)O)C(=O)N[C@@H](Cc1c[nH]cn1)C(=O)N[C@@H](CC(=O)O)C(=O)Nc1ccc2c(C)cc(=O)oc2c1; target = Caspase-5 (CASP5, Homo sapiens, UniProt P51878); assay = substrate cleavage, substrate, fluorogenic AMC release; setting = enzyme 0.25 activity units/µL; measurement = Vmax; value = 1210 ± 40.9 RFU/min
SMILES = C=C(C)C(=O)Oc1ccc(C(C)(C)c2ccc(OC(=O)C(=C)C)cc2)cc1; target = Androgen receptor (AR, Homo sapiens, UniProt P10275); assay = reporter gene, antagonist; system = CHO; setting = added: 0.1 nM R1881; how to read = relative to: R1881 alone; measurement = maximum inhibition; value = 89%
SMILES = Nc1nc2c([C@@H]3O[C@@H]4COP(=O)(O)O[C@H]5[C@@H](O)[C@H](n6cnc7c(=O)[nH]c(N)nc76)O[C@@H]5COP(=O)(O)O[C@H]4[C@H]3O)snc2c(=O)[nH]1; target = rocR (Pseudomonas aeruginosa, UniProt Q9HX69); assay = substrate; setting = 10 µM, second binding orientation, added: 100 nM enzyme; measurement = association rate constant k3; value = 1.8e+06 ± 100000 M⁻¹ s⁻¹
SMILES = O=C(O)COc1ccc(Cl)cc1; target = Chloride channel protein (Torpedo marmorata, UniProt P21564, C212S); assay = binding to closed state, kinetic model fit; setting = 20 mM; measurement = on-rate constant; value = 29500 M⁻¹ s⁻¹
SMILES = NC(=O)Cc1cc(=O)oc2cc(NC(=O)[C@@H](N)Cc3ccc(O)cc3)ccc12; target = Aminopeptidase N (Neisseria meningitidis, UniProt Q9JYV4); assay = enzyme activity, substrate; setting = pH 7.5, 37 °C; measurement = Km; value = 46.4 ± 2.5 µM
SMILES = S=C(NCc1ccccn1)NCc1ccccn1; target = ACHE; assay = enzyme activity, inhibitor; setting = 250 µg/mL; measurement = inhibition; value = 59.2%
SMILES = O=C(c1ccc2c(c1)c1ccccc1n2CCN1CCCCC1)c1cccc2ccccc12; target = CNR1 (Homo sapiens, UniProt P21554); assay = GTPγS binding, agonist; setting = cell membranes; measurement = Emax; value = 96.5%
SMILES = N[C@@H](Cc1ccc(C(=O)NCCc2ccc3ccccc3c2)cc1)C(=O)N1Cc2ccccc2C[C@H]1C(=O)N[C@@H](Cc1ccccc1)C(=O)N[C@@H](Cc1ccccc1)C(=O)O; target = OPRD1 (Homo sapiens, UniProt P41143); assay = agonist; system = HEK293 cells expressing OPRD1; measurement = EC50; value = 0.475 nM
SMILES = CC(=O)N[C@H]1C(O)O[C@H](CO)[C@@H](O[C@@H]2O[C@H](CO)[C@H](O)[C@H](O)[C@H]2O)[C@@H]1O (some centres unmarked); target = Galectin-3 (LGALS3, Homo sapiens, UniProt P17931); assay = binding, isothermal titration calorimetry; setting = full-length protein; measurement = –ΔH; value = 12.7 kcal/mol
SMILES = CC(C)C[C@H](NC(=O)[C@H](CCCCN)NC(=O)[C@H](CC(C)C)NC(=O)[C@]1(C)CCCC=CCCC[C@](C)(N)C(=O)N[C@@H](C)C(=O)N[C@@H](Cc2ccc(O)cc2)C(=O)N[C@@H](Cc2ccccc2)C(=O)N1)C(=O)N[C@@H](C)C(=O)NCC(=O)N[C@@H](CCCNC(=N)N)C(=O)N[C@@H](Cc1c[nH]c2ccccc12)C(N)=O; target = PC4 and SFRS1-interacting protein, with HIV integrase (Homo sapiens, UniProt O75475); setting = concentration not given, HIV-1 context; measurement = activity; value = inactive
SMILES = CC(C)P(=S)(NP(=[Se])(C(C)C)C(C)C)C(C)C; target = Alpha-amylase (Bacillus subtilis, UniProt P00691); assay = fluorescence quenching; setting = concentration not given, 298 K; measurement = number of binding sites; value = 0.85 ± 0.09
SMILES = CC(C)C[C@H](NC(=O)[C@H](CCC(=O)O)NC(=O)[C@H](C)NC(=O)[C@H](CCC(=O)O)NC(=O)[C@H](CCC(=O)O)NC(=O)[C@H](Cc1c[nH]cn1)NC(=O)[C@H](CCCNC(=N)N)NC(=O)[C@H](CCC(=O)O)NC(=O)[C@H](CC(N)=O)NC(=O)[C@H](CCCCN)NC(=O)[C@H](CC(C)C)NC(=O)[C@H](CCCNC(=N)N)NC(=O)[C@H](CCC(N)=O)NC(=O)[C@H](CC(C)C)NC(=O)[C@H](CCC(=O)O)NC(=O)[C@H](C)NC(=O)[C@H](CC(N)=O)NC(=O)[C@H](C)NC(=O)[C@@H](NC(=O)[C@H](CC(C)C)NC(=O)[C@H](CCCCN)NC(=O)[C@H](CCC(=O)O)NC(=O)[C@@H](NC(=O)[C@H](CO)NC(=O)CN)C(C)C)[C@@H](C)O)C(=O)N[C@@H](CCC(=O)O)C(=O)N[C@@H](CCCNC(=N)N)C(=O)N[C@@H](CC(C)C)C(=O)N[C@@H](CCCCN)C(=O)N[C@@H](CO)C(=O)N[C@@H](CCC(=O)O)C(=O)N[C@@H](Cc1ccc(O)cc1)C(=O)O; target = Plasminogen (PLG, Homo sapiens, UniProt P00747, C188G/E240D/L256Y); assay = binding, SPR; setting = pH 7.4; measurement = kon; value = 36200 M⁻¹ s⁻¹
SMILES = CC(=O)N[C@H]1[C@@H](O[C@H](C)[C@H](NC(=O)[C@H](CO)NC(=O)CNC(=O)[C@@H]2CCCN2C(=O)[C@H](C)NC(=O)[C@@H]2CCCN2C(=O)[C@@H](N)CCCNC(=N)N)C(=O)N[C@@H](C)C(=O)N2CCC[C@H]2C(=O)N2CCC[C@H]2C(=O)N[C@@H](C)C(=O)N[C@@H](Cc2c[nH]cn2)C(=O)NCC(=O)O)O[C@H](CO)[C@H](O)[C@@H]1O; target = anti-MUC1 Fab 16 A wild type, murine; assay = SPR; how to read = relative to: peptide KD over Glyco-T KD; measurement = KD ratio; value = 30.6 fold
SMILES = CN1/C(=C/C=C/C=C/C2=[N+](CCCCCC(=O)NCCCCCCCCN3[C@@H]4[C@H](C(=O)O)[C@@H](O)[C@H](O)[C@@H](O)[C@@H]43)c3ccccc3C2(C)C)C(C)(C)c2ccccc21 (some centres unmarked); target = Heparanase (HPSE, Homo sapiens, UniProt Q9Y251); assay = inhibitor, competitive ABPP; system = human platelet lysate; measurement = concentration abolishing labeling; value = 3 µM
SMILES = CCCCN(Cc1ccc(F)cc1)c1nc(C#N)nc(N2CCOCC2)n1; target = CPL; assay = enzyme activity, inhibitor; how to read = relative to: human over Toxoplasma IC50; measurement = selectivity ratio; value = 0.22
SMILES = CC(=O)N[C@H]1CSC(=O)[C@H](CC(C)C)NC(=O)[C@H](CC(C)C)NC(=O)[C@H](Cc2ccccc2)NC(=O)[C@H](CC(=O)O)NC1=O; target = Accessory gene regulator protein C (Staphylococcus aureus, UniProt O33590); assay = reporter gene, antagonist; system = P3-gfp reporter AH1747; how to read = relative to: compound over AIP-III D4A; measurement = IC50 ratio; value = ~1000 fold
SMILES = O=C(O)/C=C/c1cc(O)cc(O)c1; target = ACHE; assay = enzyme activity, inhibitor; setting = 62.5 µg/mL; measurement = inhibition; value = 48.2 ± 3.34%
SMILES = CC(=O)NCC(=O)N[C@@H](C)C(=O)N[C@@H](CCCCNP(=O)(O)O)C(=O)NCC(=O)NCC(N)=O; target = Phospholysine phosphohistidine inorganic pyrophosphate phosphatase (LHPP, Homo sapiens, UniProt Q9H008); assay = substrate; setting = 100 µM, pH 7.8; measurement = first-order rate constant; value = 0.000429 s⁻¹
SMILES = CC[C@@H](C)[C@@H](NC(=O)[C@@H](CC(N)=O)NC(=O)[C@@H](CC(N)=O)NC(=O)[C@H](N)CCCNC(N)=O)C(=O)N1C[C@@H](n2cc([C]34[CH]5[CH]6[CH]7[CH]3[Fe]6754389%10[CH]4[CH]3[CH]8[CH]9[CH]4%10)nn2)C[C@H]1C(=O)N[C@@H](Cc1csc2ccccc12)C(=O)N[C@H](CO)C(N)=O (some centres unmarked); target = env (Human immunodeficiency virus type 1 group M subtype B, UniProt P35961); assay = ITC; setting = pH 7.4, 25 °C; measurement = binding free energy; value = -8.9 ± 2.9 kcal/mol
SMILES = CC(C)CN(Cc1ccc(F)cc1)c1nc(C#N)nc(N2CCOCC2)n1; target = CPL; assay = enzyme activity, inhibitor; how to read = relative to: human over Toxoplasma IC50; measurement = selectivity ratio; value = 0.03
SMILES = CC[C@H](C)[C@H]1C(=O)O[C@H](C(C)C)C(=O)N(C)[C@@H]([C@@H](C)CC)C(=O)O[C@H](C(C)C)C(=O)N(C)[C@@H]([C@@H](C)CC)C(=O)O[C@H](C(C)C)C(=O)N1C; target = HSP90AB1 (Homo sapiens, UniProt P08238); assay = binding, SPR; measurement = koff; value = 0.0322 s⁻¹
SMILES = CCN(Cc1ccccc1)C(=O)CCc1nc(CN2CCN(C(=O)Cc3ccc(OC)c(OC)c3)CC2)no1; target = SCN9A (Homo sapiens, UniProt Q15858); assay = sodium current, whole-cell patch clamp; system = HEK293, stable; setting = 3 µM; measurement = inactivation V1/2; value = -76.9 ± 6.91 mV
